Measurements pooled from the literature.
Every numbered part comes from another study and shows a few of its results, in no order.
Sequence of UniProt Q6PHR2 (whole entry, looked up): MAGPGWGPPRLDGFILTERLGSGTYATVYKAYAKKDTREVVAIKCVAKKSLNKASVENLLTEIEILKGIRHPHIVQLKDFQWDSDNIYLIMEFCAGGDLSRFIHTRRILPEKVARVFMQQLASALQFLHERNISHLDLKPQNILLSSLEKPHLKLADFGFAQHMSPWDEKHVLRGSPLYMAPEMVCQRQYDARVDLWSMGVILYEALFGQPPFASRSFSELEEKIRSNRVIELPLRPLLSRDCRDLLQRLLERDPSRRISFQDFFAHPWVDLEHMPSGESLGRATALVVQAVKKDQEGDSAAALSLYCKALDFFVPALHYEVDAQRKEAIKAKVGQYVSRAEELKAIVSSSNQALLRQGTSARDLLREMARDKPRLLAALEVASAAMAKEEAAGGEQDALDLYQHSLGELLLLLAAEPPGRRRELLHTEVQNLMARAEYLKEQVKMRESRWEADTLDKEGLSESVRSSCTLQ
Sequence of UniProt P24723 (whole entry, looked up): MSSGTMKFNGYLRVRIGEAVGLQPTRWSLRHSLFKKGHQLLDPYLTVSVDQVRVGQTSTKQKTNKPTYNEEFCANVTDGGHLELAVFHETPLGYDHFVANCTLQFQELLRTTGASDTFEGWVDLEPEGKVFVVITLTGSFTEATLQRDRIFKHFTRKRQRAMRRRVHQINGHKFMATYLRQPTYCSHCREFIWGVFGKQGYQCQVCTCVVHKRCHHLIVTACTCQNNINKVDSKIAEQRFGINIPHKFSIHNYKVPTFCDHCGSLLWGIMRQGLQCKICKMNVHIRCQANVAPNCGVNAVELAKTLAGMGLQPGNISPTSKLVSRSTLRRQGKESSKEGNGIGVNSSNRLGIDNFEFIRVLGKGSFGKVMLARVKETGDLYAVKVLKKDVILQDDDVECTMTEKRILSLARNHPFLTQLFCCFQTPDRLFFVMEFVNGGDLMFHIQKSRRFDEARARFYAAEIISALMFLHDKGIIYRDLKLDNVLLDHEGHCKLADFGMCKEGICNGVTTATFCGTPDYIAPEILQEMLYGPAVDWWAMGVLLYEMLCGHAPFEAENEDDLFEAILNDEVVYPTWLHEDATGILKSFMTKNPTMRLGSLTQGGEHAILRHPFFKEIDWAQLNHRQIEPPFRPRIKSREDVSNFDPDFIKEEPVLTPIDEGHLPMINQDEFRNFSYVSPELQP
Sequence of UniProt P23458 (whole entry, looked up): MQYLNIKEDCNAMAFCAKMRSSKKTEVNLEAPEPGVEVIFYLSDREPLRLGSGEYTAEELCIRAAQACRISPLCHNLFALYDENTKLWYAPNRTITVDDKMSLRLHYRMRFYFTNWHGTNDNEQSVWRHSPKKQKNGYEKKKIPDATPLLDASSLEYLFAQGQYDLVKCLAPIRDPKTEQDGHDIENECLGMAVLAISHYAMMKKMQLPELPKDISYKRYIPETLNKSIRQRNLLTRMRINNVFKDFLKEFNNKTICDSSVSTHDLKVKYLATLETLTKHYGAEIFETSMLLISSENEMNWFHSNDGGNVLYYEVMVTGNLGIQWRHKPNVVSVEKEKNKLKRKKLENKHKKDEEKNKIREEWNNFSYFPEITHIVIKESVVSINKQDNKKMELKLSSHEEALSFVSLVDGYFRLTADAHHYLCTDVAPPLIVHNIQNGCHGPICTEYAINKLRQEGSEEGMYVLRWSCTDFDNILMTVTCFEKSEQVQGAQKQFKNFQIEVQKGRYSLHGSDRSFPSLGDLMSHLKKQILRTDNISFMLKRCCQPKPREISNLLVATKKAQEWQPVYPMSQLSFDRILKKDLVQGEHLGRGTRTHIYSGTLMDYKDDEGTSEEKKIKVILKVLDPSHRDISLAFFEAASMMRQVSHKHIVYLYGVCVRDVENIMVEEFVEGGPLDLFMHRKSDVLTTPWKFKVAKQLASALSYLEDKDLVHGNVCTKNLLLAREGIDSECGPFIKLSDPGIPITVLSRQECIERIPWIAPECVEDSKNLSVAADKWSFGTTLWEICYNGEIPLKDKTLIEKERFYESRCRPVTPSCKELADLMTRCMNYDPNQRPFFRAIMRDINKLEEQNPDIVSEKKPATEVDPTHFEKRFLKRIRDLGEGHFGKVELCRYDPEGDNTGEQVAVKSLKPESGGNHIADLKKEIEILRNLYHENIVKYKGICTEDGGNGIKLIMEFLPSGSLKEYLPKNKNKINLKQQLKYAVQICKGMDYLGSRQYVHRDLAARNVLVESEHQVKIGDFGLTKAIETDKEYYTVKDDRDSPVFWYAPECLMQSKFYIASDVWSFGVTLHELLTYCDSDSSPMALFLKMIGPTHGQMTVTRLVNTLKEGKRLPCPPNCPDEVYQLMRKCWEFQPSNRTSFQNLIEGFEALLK
Sequence of UniProt Q9UF33 (whole entry, looked up): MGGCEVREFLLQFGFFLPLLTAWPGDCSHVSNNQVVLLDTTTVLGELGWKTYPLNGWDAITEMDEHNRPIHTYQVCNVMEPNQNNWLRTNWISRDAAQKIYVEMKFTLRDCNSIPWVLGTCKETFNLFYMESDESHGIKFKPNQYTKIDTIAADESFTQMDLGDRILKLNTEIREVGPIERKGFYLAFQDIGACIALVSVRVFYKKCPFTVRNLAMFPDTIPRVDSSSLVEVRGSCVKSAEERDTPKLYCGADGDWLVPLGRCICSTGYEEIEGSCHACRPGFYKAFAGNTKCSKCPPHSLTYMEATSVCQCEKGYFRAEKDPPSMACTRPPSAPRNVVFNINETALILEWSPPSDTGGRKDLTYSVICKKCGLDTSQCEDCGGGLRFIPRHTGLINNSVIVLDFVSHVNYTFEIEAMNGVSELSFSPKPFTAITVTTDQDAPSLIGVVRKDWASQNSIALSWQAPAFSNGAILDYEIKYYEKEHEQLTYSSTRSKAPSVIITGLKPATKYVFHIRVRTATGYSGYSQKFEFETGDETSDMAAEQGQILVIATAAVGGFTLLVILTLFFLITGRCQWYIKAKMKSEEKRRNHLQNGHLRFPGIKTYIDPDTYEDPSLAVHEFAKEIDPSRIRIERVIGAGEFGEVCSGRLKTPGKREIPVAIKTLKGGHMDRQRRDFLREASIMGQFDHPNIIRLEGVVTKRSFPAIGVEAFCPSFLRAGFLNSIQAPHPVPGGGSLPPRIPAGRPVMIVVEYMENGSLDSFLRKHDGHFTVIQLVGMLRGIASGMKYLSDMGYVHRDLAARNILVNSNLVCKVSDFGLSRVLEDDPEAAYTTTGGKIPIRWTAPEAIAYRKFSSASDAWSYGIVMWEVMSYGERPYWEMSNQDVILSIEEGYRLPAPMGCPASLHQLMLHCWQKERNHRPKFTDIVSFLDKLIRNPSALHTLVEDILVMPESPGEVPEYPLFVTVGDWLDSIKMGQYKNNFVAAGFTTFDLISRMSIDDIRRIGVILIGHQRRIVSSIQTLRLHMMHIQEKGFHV
Sequence of UniProt P06241 (whole entry, looked up): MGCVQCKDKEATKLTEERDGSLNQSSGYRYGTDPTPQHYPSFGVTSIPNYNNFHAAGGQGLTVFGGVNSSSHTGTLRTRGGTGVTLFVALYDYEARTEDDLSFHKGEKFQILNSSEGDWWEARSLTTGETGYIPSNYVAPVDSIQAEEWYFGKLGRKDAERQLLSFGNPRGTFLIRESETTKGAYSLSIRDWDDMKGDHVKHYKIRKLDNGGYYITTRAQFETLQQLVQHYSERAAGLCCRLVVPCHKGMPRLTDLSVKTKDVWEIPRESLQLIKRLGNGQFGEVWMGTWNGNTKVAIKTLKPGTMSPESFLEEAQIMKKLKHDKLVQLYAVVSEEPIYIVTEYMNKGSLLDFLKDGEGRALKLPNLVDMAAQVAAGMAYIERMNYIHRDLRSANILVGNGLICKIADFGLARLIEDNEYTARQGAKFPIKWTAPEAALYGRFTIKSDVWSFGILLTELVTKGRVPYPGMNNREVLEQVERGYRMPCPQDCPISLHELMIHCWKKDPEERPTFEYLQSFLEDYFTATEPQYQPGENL
Sequence of UniProt O60674 (whole entry, looked up): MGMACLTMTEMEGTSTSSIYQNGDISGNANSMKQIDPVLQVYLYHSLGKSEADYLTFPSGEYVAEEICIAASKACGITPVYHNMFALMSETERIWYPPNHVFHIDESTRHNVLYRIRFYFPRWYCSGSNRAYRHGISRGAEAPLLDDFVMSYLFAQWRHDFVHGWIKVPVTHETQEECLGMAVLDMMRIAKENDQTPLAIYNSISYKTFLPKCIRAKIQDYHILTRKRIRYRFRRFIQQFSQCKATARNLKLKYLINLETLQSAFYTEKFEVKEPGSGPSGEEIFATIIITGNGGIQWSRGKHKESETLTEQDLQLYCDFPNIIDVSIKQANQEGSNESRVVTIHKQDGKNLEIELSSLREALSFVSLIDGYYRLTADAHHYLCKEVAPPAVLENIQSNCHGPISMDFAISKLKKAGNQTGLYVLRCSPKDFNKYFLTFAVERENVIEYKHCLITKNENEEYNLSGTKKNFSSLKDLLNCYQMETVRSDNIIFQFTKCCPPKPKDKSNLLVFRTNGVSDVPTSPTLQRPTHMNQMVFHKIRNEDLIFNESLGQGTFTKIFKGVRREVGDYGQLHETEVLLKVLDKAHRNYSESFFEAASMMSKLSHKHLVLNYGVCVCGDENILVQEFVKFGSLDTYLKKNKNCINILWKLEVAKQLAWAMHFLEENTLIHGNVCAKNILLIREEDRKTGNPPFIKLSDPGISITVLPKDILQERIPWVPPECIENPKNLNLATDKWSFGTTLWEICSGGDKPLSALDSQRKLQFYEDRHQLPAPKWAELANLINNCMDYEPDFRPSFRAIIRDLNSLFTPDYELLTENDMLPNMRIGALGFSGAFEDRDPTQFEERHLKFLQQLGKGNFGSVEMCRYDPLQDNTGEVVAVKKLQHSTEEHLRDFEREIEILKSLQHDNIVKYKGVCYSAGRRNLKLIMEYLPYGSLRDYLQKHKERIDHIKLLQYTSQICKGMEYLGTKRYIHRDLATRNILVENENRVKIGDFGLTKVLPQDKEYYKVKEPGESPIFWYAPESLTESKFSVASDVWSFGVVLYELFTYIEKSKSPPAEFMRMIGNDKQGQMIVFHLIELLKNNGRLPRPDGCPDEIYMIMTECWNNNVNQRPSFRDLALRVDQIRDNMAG

Set 1
SMILES: C[C@@H]1CN(c2cc(-c3nn(C)c4ccc(OC5(C)CC5)cc34)ncn2)C[C@H](C)O1
Effect on: cell-free assay
Method: competition with immobilised ligand
Concentration: 1 µM
MTOR (Homo sapiens, UniProt P42345) — remaining binding: 100%.
MAPK14 (Homo sapiens, UniProt Q16539) — remaining binding: 100%.
For Ribosomal protein S6 kinase alpha-5, N-terminal kinase domain (RPS6KA5, Homo sapiens, UniProt O75582): remaining binding read 100%.
It gave 74% for remaining binding (STK26 (Homo sapiens, UniProt Q9P289)).
The remaining binding was 100% (PRKCH (Homo sapiens, UniProt P24723)).
The remaining binding was 98% (FYN (Homo sapiens, UniProt P06241)).
The remaining binding was 86% (STK33 (Homo sapiens, UniProt Q9BYT3)).
It gave 68% for remaining binding (NUAK2 (Homo sapiens, UniProt Q9H093)).
MAP2K3 (Homo sapiens, UniProt P46734) — remaining binding: 70%.
For TGFBR2 (Homo sapiens, UniProt P37173): remaining binding read 73%.
For PIM2 (Homo sapiens, UniProt Q9P1W9): remaining binding read 100%.
It gave 100% for remaining binding (EPHA6 (Homo sapiens, UniProt Q9UF33)).
It gave 67% for remaining binding (ULK3 (Homo sapiens, UniProt Q6PHR2)).
It gave 100% for remaining binding (Tyrosine-protein kinase JAK1, JH1 (JAK1, Homo sapiens, UniProt P23458)).
SIK3 (Homo sapiens, UniProt Q9Y2K2) — remaining binding: 63%.
For PAK6 (Homo sapiens, UniProt Q9NQU5): remaining binding read 100%.
Tyrosine-protein kinase JAK2, JH1 (JAK2, Homo sapiens, UniProt O60674) — remaining binding: 55%.

Set 2
SMILES: CC(=O)N[C@@H](Cc1c[nH]c2ccccc12)C(=O)N[C@@H](CCC(=O)C=[N+]=[N-])C(=O)OC(C)C
Host: mouse, EL4 tumour-bearing
Matrix: EL4 tumour
Dose: dose not given
Baseline: vehicle
The “log2 fold change” was 0.51 (measured: 3-sulfo-L-alanine).
It gave 0.323 for “log2 fold change” (measured: asparagine).
The “log2 fold change” was 0.359 (measured: 5-hydroxylysine).
For measured: gamma-glutamylglycine: “log2 fold change” read -0.892.
It gave 0.242 for “log2 fold change” (measured: N-acetylglycine).
measured: anserine — “log2 fold change”: 1.86.

Set 3
Cell line: HaCaT
Concentration: 100 µM
Time: 36 h
`Nc1nc2ncc(CNc3ccc(C(=O)N[C@@H](CCC(=O)O)C(=O)O)cc3)nc2c(=O)[nH]1` has a viability of 94.3%.
`O=C(O)[C@H](O)[C@@H](O)[C@H](O)[C@H](O)CO` has a viability of 83.9%.
For `O=c1ccc2ccc(O)c(O)c2o1`, the viability was 108%.
`CC(C)(Oc1ccc(C(=O)c2ccc(Cl)cc2)cc1)C(=O)O` gave a viability of 90%.
`N[C@H](C(=O)O)[C@H](O)c1ccc(O)c(O)c1` has a viability of 100%.

Set 4
Host: human
Matrix: microsomes or S9
Concentration: 2 µM
Time: 0.5 h
For `COc1ccc(CCc2nc(CCS(C)(=O)=O)c(O)c(C(=O)O)c2C(=O)O)cc1`, the remaining compound was 92.2%.
`CC1CCc2cc(F)ccc2N1S(=O)(=O)c1ccc(S(=O)(=O)NC2CCCCC2)cc1` (stereo not shown) gave a remaining compound of 95.3%.
With `COc1ccccc1-c1n[nH]cc1CN1CCCN(S(=O)(=O)c2cn(C)cn2)C(c2ccccc2)CC(=O)NCC1` (stereo not shown) the remaining compound was 88.5%.
For `COc1cccc2c(C(C(=O)O)N3CCN(C4=Nc5ccccc5Oc5ccccc54)CC3)c[nH]c12` (stereo not shown), the remaining compound was 87.8%.
`OCCNc1nc(Cl)nc(Nc2ccc3c(c2)OCO3)n1` has a remaining compound of 21.5%.
`N#Cc1ccccc1N1CCN(C2CCC(C(=O)Nc3cccc(Cl)c3Cl)C2)CC1` (stereo not shown) gave a remaining compound of 19.1%.

A few entries again (set 1):
For TGFBR2 (Homo sapiens, UniProt P37173): remaining binding read 73%.
The remaining binding was 100% (PRKCH (Homo sapiens, UniProt P24723)).
It gave 100% for remaining binding (Tyrosine-protein kinase JAK1, JH1 (JAK1, Homo sapiens, UniProt P23458)).
Tyrosine-protein kinase JAK2, JH1 (JAK2, Homo sapiens, UniProt O60674) — remaining binding: 55%.
It gave 68% for remaining binding (NUAK2 (Homo sapiens, UniProt Q9H093)).
